Results collected from several papers.
Parts stem from different laboratories: compare values within a part only. Positions count from the first letter of the parent shown.

Study 1 — technique: DHFR PCA, deep sequencing; medium: yeast; together with: (+)-ABA 200 µM; reference: wild-type fitted maximum; direction: higher = stronger binding; endpoint: relative binding score
Target: ABI1, truncated, D143A, DHFR fusion (Arabidopsis thaliana)
Notes: methotrexate growth selection, single substitutions
Starting sequence: PYL1, truncated, DHFR fusion (Arabidopsis thaliana); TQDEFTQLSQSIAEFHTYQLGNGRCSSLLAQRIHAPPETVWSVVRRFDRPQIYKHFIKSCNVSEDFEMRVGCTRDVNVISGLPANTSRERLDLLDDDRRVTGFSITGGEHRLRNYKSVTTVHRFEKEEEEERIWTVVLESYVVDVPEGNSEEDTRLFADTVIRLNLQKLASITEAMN; partner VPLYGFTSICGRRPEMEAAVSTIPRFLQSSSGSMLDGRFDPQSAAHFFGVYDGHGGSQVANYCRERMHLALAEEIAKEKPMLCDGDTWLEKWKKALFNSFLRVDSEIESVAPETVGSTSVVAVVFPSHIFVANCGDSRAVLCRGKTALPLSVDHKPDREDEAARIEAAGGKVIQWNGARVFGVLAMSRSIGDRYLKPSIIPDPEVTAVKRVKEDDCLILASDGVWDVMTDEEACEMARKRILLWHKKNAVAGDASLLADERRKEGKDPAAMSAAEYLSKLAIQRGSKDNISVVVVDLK
Substitution = T160H; value = 83.8%
Substitution = S87F; value = 23.4%
Substitution = S80A; value = 62.6%
Substitution = V62M; value = 99.5%
Substitution = N22H; value = 100%
Substitution = S150P; value = 26.1%
Substitution = K116E; value = 67.9%
Substitution = K126Y; value = 101%
Substitution = S171R; value = 99.3%
Substitution = I79P; value = 45.7%
Substitution = V76Q; value = -2.42%
Substitution = D97E; value = 106%
Substitution = G71C; value = 36.1%
Substitution = T1S; value = 95.2%

Study 2 — target: CCNB2, cyclin fold, Cln2 fusion (human); technique: yeast growth competition, sequencing; medium: yeast; notes: weak parent motif; reference: not given; direction: higher = stronger binding; endpoint: normalised enrichment score
Starting sequence: PKN2 docking peptide (human); VSAVQKLDFSDTM; partner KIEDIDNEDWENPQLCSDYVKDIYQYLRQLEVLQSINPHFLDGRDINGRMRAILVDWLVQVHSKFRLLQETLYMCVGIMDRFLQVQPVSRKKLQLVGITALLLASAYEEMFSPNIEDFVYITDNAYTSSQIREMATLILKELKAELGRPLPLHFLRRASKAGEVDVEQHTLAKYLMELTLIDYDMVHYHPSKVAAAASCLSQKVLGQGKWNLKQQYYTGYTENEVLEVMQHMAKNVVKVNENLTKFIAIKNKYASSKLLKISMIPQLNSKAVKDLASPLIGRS
Substitution = VSAVQKLDFHDTM [S10H]; value = -0.126
Substitution = VSPVQKLDFSDTM [A3P]; value = 0.47
Substitution = VSAVQHLDFSDTM [K6H]; value = -0.231
Substitution = VSNVQKLDFSDTM [A3N]; value = -0.218
Substitution = VSMVQKLDFSDTM [A3M]; value = 0.059
Substitution = VSAVQKLDFSDVM [T12V]; value = 0.107
Substitution = VSAVQKVDFSDTM [L7V]; value = -0.421
Substitution = VSAVQDLDFSDTM [K6D]; value = -0.563
Substitution = VSAVQKLDFSMTM [D11M]; value = -0.241
Substitution = VSDVQKLDFSDTM [A3D]; value = -1.01
Substitution = VSAVQKGDFSDTM [L7G]; value = -0.524
Substitution = VSASQKLDFSDTM [V4S]; value = -0.568
Substitution = VSAVQKLDFQDTM [S10Q]; value = -0.689
Substitution = GSAVQKLDFSDTM [V1G]; value = 0.0168
Substitution = VSAVQKLDFSETM [D11E]; value = -0.188
Substitution = VSAVQKTDFSDTM [L7T]; value = -0.268
Substitution = VSAVQKLDFSDTL [M13L]; value = 0.23
Substitution = VSAVQKLFFSDTM [D8F]; value = -0.0974
Substitution = VSAVQKLDFSDTK [M13K]; value = -0.0787
Substitution = VSAVQKLDFSCTM [D11C]; value = 0.0936
Substitution = VSAVQKYDFSDTM [L7Y]; value = -0.387

Study 3 — technique: protein-binding microarray; molecule type: double-stranded DNA, one strand shown; medium: in vitro; concentration: 250 nM; notes: 60-bp whole probe; together with: salmon DNA 0.4 mg/ml; reference: random background probes; direction: higher = stronger binding; endpoint: log fluorescence; shared flanks, not repeated: GCCTAGCAC … GTCTTGATTCGCTTGACGCTGCTG
Target: Interferon regulatory factor 7, full length, phosphomimetic (IRF7, Homo sapiens, UniProt Q92985, residues 1-503, S101K/S471D/S472D/S475D/S476D/S477D/S483D/S484D/S487D)
Residues (chain): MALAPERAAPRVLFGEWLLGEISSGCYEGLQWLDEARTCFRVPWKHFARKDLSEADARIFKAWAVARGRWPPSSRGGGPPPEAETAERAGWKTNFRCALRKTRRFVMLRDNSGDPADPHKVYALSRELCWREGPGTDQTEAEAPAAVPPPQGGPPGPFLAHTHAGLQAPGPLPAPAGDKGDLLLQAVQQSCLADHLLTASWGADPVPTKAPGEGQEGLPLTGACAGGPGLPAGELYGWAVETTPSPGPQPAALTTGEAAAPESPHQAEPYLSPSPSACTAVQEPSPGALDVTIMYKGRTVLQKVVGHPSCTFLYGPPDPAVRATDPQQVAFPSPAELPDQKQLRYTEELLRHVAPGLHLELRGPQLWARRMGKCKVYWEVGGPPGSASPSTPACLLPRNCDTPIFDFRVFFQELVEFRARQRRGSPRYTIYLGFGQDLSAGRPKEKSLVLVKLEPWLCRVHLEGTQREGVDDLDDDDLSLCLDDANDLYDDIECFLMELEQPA
Oligonucleotide = GACGGTCTCGGTATCGTGACGTGCTAG; value = 1.6 z-score
Oligonucleotide = GACGGACTGTGTATCGGGACGTGCTAG; value = -0.484 z-score
Oligonucleotide = TACGGTTTCGACTTTCGGGACGTGCTA; value = 11 z-score
Oligonucleotide = TACGGTATCGGTCTCGGGACGTGCTAG; value = 0.721 z-score
Oligonucleotide = TTAGATTTCGGTTTCGGTTAGTGCTAG; value = 11.3 z-score
Oligonucleotide = CTAGATATCAGTCTCGATTAGTGCTAG; value = 2.01 z-score
Oligonucleotide = GACGCTATCGACACTGGGGACGTGCTA; value = 0.201 z-score
Oligonucleotide = CACGATATCGGGTATCGAGACGTGCTA; value = 0.323 z-score
Oligonucleotide = TTAGGTATCGGTCTTGGTTAGTGCTAG; value = 0.904 z-score
Oligonucleotide = TTAGGTATCCTTATCCTTCAGTGCTAG; value = 0.399 z-score
Oligonucleotide = TTAGATTTCGGGTATCGACTAGTGCTA; value = 0.893 z-score
Oligonucleotide = TTAGGTATCGGAATGGGTTAGTGCTAG; value = 1.45 z-score
Oligonucleotide = CCTAATTCTCTTTTCACTTTGTGCTAG; value = 2.34 z-score
Oligonucleotide = GACGATTTCGGTACTGGAGACGTGCTA; value = 0.119 z-score
Oligonucleotide = TTCATTTTCTGAATGTCCTCGTGCTAG; value = 1.42 z-score
Oligonucleotide = TTAGGTTGCGGGTTTCGGTTAGTGCTA; value = 6.1 z-score
Oligonucleotide = TTAGATTTCAGTTTCAATTAGTGCTAG; value = 2.09 z-score
Oligonucleotide = GAAGGTTTCGACTATCGGGACGTGCTA; value = 5.21 z-score
Oligonucleotide = TCATCTCTGTCCCTGTTACTGTGCTAG; value = 0.806 z-score

Study 4 — technique: protein binding microarray; molecule type: double-stranded DNA, one strand shown; medium: in vitro; concentration: not given; reference: not given; direction: higher = stronger binding; endpoint: E-score
Target: Histone acetyltransferase KAT6A, winged helix 1, GST fusion (KAT6A, Homo sapiens, UniProt Q92794, residues 1-85)
Notes: 8-mer, flanks averaged, mean of 2 arrays, mostly near background
Construct (chain): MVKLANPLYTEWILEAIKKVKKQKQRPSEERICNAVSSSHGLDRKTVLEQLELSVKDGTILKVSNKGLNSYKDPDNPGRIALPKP
Oligonucleotide = CATAGGTA; value = -0.155
Oligonucleotide = CCTGTGAC; value = -0.23
Oligonucleotide = TCTATAGA; value = -0.0345
Oligonucleotide = GGGGCAGA; value = -0.121
Oligonucleotide = CTCTGATC; value = -0.12
Oligonucleotide = ATTCCAGG; value = -0.172
Oligonucleotide = ATCTTGCA; value = -0.0563
Oligonucleotide = CCCGCCGG; value = 0.476
Oligonucleotide = CCGAGAAC; value = 0.00762
Oligonucleotide = CAGCGTGG; value = 0.15
Oligonucleotide = ACTCCAGT; value = -0.185
Oligonucleotide = AAGCCCAT; value = -0.183
Oligonucleotide = GCTTTGAA; value = -0.142
Oligonucleotide = ACCGATCG; value = 0.18
Oligonucleotide = AAAAAGGC; value = -0.138
Oligonucleotide = GTATTGCA; value = -0.0455
Oligonucleotide = AGCCTCAC; value = -0.287
Oligonucleotide = GATCCCGA; value = 0.076
Oligonucleotide = CCACCCAA; value = -0.232
Oligonucleotide = GGTGTACA; value = 0.0042
Oligonucleotide = ATCAATCC; value = -0.0612

Study 5 — technique: RNA Bind-n-Seq; molecule type: RNA; medium: in vitro; concentration: 200 nM; notes: whole 134-nt RNA, ends assumed; together with: 150 mM KCl; reference: input library; direction: higher = stronger binding; endpoint: log2 enrichment
Target: Fragile X messenger ribonucleoprotein 1, C-terminal low-complexity region (Fmr1, Mus musculus, UniProt P35922)
Shared flanks, not repeated: GGGAGUUCUACAGUCCGACGAUC … UGGAAUUCUCGGGUGUCAAGG
Oligonucleotide = CCUGUGCUACACAUCGUAUGUACCGAAUCGGGGUUUGGGGAAAAAGGGGAAAAAAAGGGGAAAGUAUUAUGUUACGCCGUUCGGAUCUGC; value = -0.0473
Oligonucleotide = CACAGACAACACGCACCCACACAGACACAGACGGAAGGGGUUGGGAUGGGGACAGGGUGCACAGCAGGGCGGGGUAGGACCCCAGCCCCU; value = 1.41
Oligonucleotide = ACCAUGCAGGUGGGCAUCCUUGGGAAGUGGGGCAAGGGGGGGAUAGGGAGGGGGGUAACACUUUGGGAACAGGUGGUCCCAGGUCGUUUC; value = 0.861
Oligonucleotide = UCCUGUGCUACACAUCGUAUGUACCGAAUCGGGCCCCCCGGGCCCCCCGGCCCCCCGGGAAAGUAUUAUGUUACGCCGUUCGGAUCUGCA; value = -0.62
Oligonucleotide = UCCAUGCAGGUGGGCAUCUUUGGGAAGUGGGGCAAGGGGGGGAUAGGGAGGGGGGUAACACUUUGGGAACAGGUGGUCCCAGGUCGUUUC; value = 0.84
Oligonucleotide = UGUGCUACACAUCGUAUGUACCGAAUCGGGGUUUUUGGGGAAAAAAAGGGGUUUUUUUGGGGAAAGUAUUAUGUUACGCCGUUCGGAUCU; value = 0.424
Oligonucleotide = UGUGCUACACAUCGUAUGUACCGAAUCGGGGAAAAAAAGGGGAAAAAAAGGGGUUUUUGGGGAAAGUAUUAUGUUACGCCGUUCGGAUCU; value = 0.138
Oligonucleotide = AAGUCCUGUGCUACACAUCGUAUGUACCGAAUCGGGUUUUGGGUUUUGGGGUUUUGGAAAGUAUUAUGUUACGCCGUUCGGAUCUGCACU; value = -0.0871
Oligonucleotide = UUACACAAACCUGCAGGUGAAGACAGGCCAGCGGACCCUCAUCAACCCCAAGCCCUGUGGCCAGUUUUGCUGCUGUGAAGUGCUGGGCUG; value = -0.473
